Literature values, collected from citations in different studies.
Numbers after ± are the reported error. ≈ marks a conversion by molar mass, not a printed value.

SMILES	target or system	assay	test system	setting	quantity	value
CC[C@H](C)[C@H](NC(=O)CNC(=O)[C@H](CC(=O)O)NC(=O)[C@H](CCCNC(=N)N)NC(=O)[C@@H](NC(=O)[C@H](CC(N)=O)NC(=O)[C@H](CCCNC(=N)N)NC(=O)CNC(=O)[C@@H](NC(=O)[C@H](CCCCN)NC(=O)[C@H](CCC(=O)O)NC(=O)[C@H](CC(C)C)NC(=O)[C@H](CCCCN)NC(=O)[C@H](CCCCN)NC(=O)[C@H](Cc1c[nH]c2ccccc12)NC(=O)[C@H](CO)NC(=O)[C@@H]1CCCN1)C(C)C)[C@@H](C)CC)C(=O)N[C@H](C(=O)N[C@@H](CCCCN)C(=O)N[C@@H](C)C(=O)NCC(=O)N1CCC[C@H]1C(=O)N[C@H](C(=O)N[C@H](C(=O)N[C@@H](CCC(=O)O)C(=O)N[C@H](C(=O)N[C@@H](CC(C)C)C(=O)NCC(=O)O)C(C)C)C(C)C)C(C)C)[C@@H](C)CC	Staphylococcus aureus				MIC	64 µM (≈ 196 µg/mL)
Cc1ccc([Se]c2c(O)cc(O)c3c(=O)c(O)c(-c4ccc(O)c(O)c4)oc23)cc1	SARS-CoV-2 main protease	enzyme activity, inhibitor			IC50	11000 nM
CCCC(=O)SCC[N+](C)(C)C	butyrylcholinesterase			concentration not given	substrate activation factor b	1.7
CCn1c(C)c(CC(=O)N[C@@H](Cc2ccccc2)C(=O)N(C)c2cccc(F)c2)c2ccccc21	HIV-1 capsid hexamer wild type				ΔTm	10.8 °C
COc1cc(C(=O)Nc2ccc(NC(=O)c3cc(OC)c(OC)c(OC)c3)cc2)cc(OC)c1OC	DHFR, human	inhibitor			IC50	4800 nM
COC1C2(O)C(=O)N3C=CC(C)(C)c4[nH]c5ccccc5c4C=C3C(=O)N2C23C(C)C(C)(C)N2c2ccccc2C13O (centres unmarked)	glycine receptor α1β, human			10 µM	activity	inactive
Nc1ncnc2c1ncn2[C@@H]1O[C@H](CSCc2cccc(C(=O)O)c2)[C@@H](O)[C@H]1O	human GNMT			off-target	IC50	8.6 nM
O=c1c(O)c(-c2ccc(O)c(O)c2)oc2c([Se]c3ccccc3)c(O)cc(O)c12	SARS-CoV-2 main protease	enzyme activity, inhibitor			IC50	5100 nM
CCn1c(C)c(CC(=O)N[C@@H](Cc2ccccc2)C(=O)N(C)c2cccc(Cl)c2)c2ccccc21	HIV-1 capsid hexamer wild type				ΔTm	9.2 °C
N#Cc1cccc(-n2[se]c3ccccc3c2=O)c1	SARS-CoV-2 main protease	enzyme activity, inhibitor			IC50	380 nM
COCc1cc(O)c(=O)c(O)c(C(=O)OC)c1C(=O)OC	HIV RNase H	enzyme activity			IC50	1000 nM
C[C@H](NC(=O)CNC(=O)[C@@H]1CCCN1C(=O)[C@H](CO)NC(=O)CNC(=O)CN)C(=O)N[C@@H](CCCCN)C(=O)N[C@@H](CCCCN)C(=O)N[C@@H](CC(N)=O)C(=O)N[C@H](C(=O)N[C@@H](CCCCN)C(=O)N[C@@H](CO)C(=O)N[C@@H](C)C(=O)N[C@@H](CS)C(=O)NCC(=O)N[C@@H](CCCCN)C(=O)N[C@@H](C)C(=O)N[C@@H](CS)C(=O)N[C@@H](C)C(=O)N[C@@H](CS)C(=O)N[C@@H](Cc1c[nH]cn1)C(=O)O)[C@@H](C)O	Pseudomonas aeruginosa				MIC	32 µM (≈ 63.2 µg/mL)
CCn1c(C)c(CC(=O)N[C@@H](Cc2ccccc2)C(=O)N(C)c2ccccc2)c2ccccc21	HIV-1 capsid hexamer wild type				ΔTm	10.8 °C
CSCC[C@H](NC(=O)[C@H](Cc1ccccc1)NC(=O)CNC(=O)[C@@H](C)NC(=O)[C@@H](N)Cc1ccc(O)cc1)C(=O)N1CCC[C@H]1C(=O)N[C@@H](CC(C)C)C(=O)N[C@@H](Cc1c[nH]c2ccccc12)C(=O)NCc1cc(C(F)(F)F)cc(C(F)(F)F)c1	mu opioid receptor, guinea pig		guinea pig ileum		IC50	490 ± 29 nM

Excerpt of the above:
SMILES	target or system	assay	test system	setting	quantity	value
CCn1c(C)c(CC(=O)N[C@@H](Cc2ccccc2)C(=O)N(C)c2cccc(Cl)c2)c2ccccc21	HIV-1 capsid hexamer wild type				ΔTm	9.2 °C
N#Cc1cccc(-n2[se]c3ccccc3c2=O)c1	SARS-CoV-2 main protease	enzyme activity, inhibitor			IC50	380 nM
